# Values quoted from earlier work as cited in several papers.
# Protocols differ between the studies behind these lines.
# Sequence of UniProt Q8TDC3 (whole entry, looked up): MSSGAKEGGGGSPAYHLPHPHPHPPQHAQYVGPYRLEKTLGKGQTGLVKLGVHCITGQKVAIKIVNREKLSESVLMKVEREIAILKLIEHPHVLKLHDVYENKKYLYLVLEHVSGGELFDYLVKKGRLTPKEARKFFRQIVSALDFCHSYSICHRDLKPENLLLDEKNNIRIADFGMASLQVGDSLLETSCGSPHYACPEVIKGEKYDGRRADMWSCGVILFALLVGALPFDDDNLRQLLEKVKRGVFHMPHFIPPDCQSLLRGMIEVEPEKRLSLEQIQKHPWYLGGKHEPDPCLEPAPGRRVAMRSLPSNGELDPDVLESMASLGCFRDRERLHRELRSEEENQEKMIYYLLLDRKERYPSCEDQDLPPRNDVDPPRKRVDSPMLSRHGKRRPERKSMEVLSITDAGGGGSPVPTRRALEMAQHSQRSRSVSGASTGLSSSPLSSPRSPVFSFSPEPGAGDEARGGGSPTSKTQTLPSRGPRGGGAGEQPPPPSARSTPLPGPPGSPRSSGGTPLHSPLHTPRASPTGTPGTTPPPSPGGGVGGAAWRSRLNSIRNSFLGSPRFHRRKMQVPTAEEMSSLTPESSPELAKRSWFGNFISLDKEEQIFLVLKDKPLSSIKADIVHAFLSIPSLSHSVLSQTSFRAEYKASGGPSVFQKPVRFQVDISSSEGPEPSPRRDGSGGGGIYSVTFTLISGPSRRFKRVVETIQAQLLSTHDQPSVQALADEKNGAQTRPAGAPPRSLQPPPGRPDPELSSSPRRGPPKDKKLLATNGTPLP
SMILES,target or system,assay,test system,setting,scale,measurement,result
CO/N=C(\C(=O)N[C@@H]1C(=O)N2C(C(=O)O)=C(COC(C)=O)CS[C@H]12)c1csc(N)n1,Mycolicibacterium smegmatis,,mc2155,,,MIC,100 µg/mL
CNC(C)C1CCC(N)C(OC2C(N)CC(N)C(OC3OCC(C)(O)C(NC)C3O)C2O)O1 (centres unmarked),Escherichia coli,,ATCC 25922,,,MIC,0.25 to 1 µg/mL
CC(=O)Nc1nnc(S(N)(=O)=O)s1,Enterococcus,,vancomycin-resistant,,,MIC,9 µM
C[C@@H](O)[C@H]1C(=O)N2C(C(=O)O)=C(SCCN=CN)C[C@H]12,Mycolicibacterium smegmatis,,mc2155,,,MIC,8 µg/mL
CNC(C)C1CCC(N)C(OC2C(N)CC(N)C(OC3OCC(C)(O)C(NC)C3O)C2O)O1 (centres unmarked),Klebsiella pneumoniae,,clinical isolate RKI-No_95/16,,,MIC,≤ 0.5 µg/mL
CC[C@@H](CO)NCCN[C@@H](CC)CO,Mycolicibacterium smegmatis,,mc2155,,,MIC,0.5 µg/mL
Oc1ccc(-c2nc(-c3ccc(OC4CCCC4)cc3)no2)cc1,Streptococcus pyogenes,,ATCC 49399,,,MIC,> 128 µg/mL
CC1(C)S[C@@H]2[C@H](NC(=O)[C@H](N)c3ccccc3)C(=O)N2[C@H]1C(=O)O,Bacillus cereus,,,,,MIC,0.016 to 32 µg/mL
CO/N=C(\C(=O)N[C@@H]1C(=O)N2C(C(=O)O)=C(COC(C)=O)CS[C@H]12)c1csc(N)n1,Escherichia coli,,ATCC BAA-2469,,,MIC,512 µg/mL
CO[C@@H]1[C@@H](OC(N)=O)[C@@H](O)[C@H](Oc2ccc3c(O)c(NC(=O)c4ccc(O)c(CC=C(C)C)c4)c(=O)oc3c2C)OC1(C)C,Mycolicibacterium smegmatis,,mc2155,,,MIC,8 µg/mL
Oc1ccc(-c2nc(-c3ccc(OC4CCCC4)cc3)no2)cc1,Veillonella sp.,,HM-49,,,MIC,> 128 µg/mL
FC(F)(F)c1ccc(Oc2ccc(-c3noc(-c4ccc5[nH]ccc5c4)n3)cc2)cc1,Lactobacillus reuteri,,HM-102,,,MIC,> 128 µg/mL
C[C@@H](O)[C@H]1C(=O)N2C(C(=O)O)=C(S[C@@H]3CN[C@H](C(=O)N(C)C)C3)[C@H](C)[C@H]12,Escherichia coli,,ATCC BAA-2469,,,MIC,32 µg/mL
CC1(C)S[C@@H]2[C@H](NC(=O)[C@H](N)c3ccccc3)C(=O)N2[C@H]1C(=O)O,Enterobacter cloacae,,clinical isolate RKI-No_571/13,,,MIC,> 16 µg/mL
CO[C@H]1/C=C/O[C@@]2(C)Oc3c(C)c(O)c4c(O)c(c(/C=N/N5CCN(C)CC5)c(O)c4c3C2=O)NC(=O)/C(C)=C\C=C\[C@H](C)[C@H](O)[C@@H](C)[C@@H](O)[C@@H](C)[C@H](OC(C)=O)[C@@H]1C,Escherichia coli,,ATCC 25922,,,MIC,4 to 16 µg/mL
CCc1c(Cl)c(O)c(Cl)c(O)c1C(=O)O[C@H]1[C@H](O)[C@H](OC)[C@H](OC/C2=C\C=C\C[C@H](O)/C(C)=C/[C@H](CC)[C@@H](O[C@@H]3OC(C)(C)[C@@H](OC(=O)C(C)C)[C@H](O)[C@@H]3O)/C(C)=C/C(C)=C/C[C@@H]([C@@H](C)O)OC2=O)O[C@@H]1C,Bacteroides fragilis,,HM-709,,,MIC,> 32 µg/mL
NCC[C@H](O)C(=O)N[C@@H]1C[C@H](N)[C@@H](O[C@H]2O[C@H](CN)[C@@H](O)[C@H](O)[C@H]2O)[C@H](O)[C@H]1O[C@H]1O[C@H](CO)[C@@H](O)[C@H](N)[C@H]1O,Escherichia coli,,ATCC BAA-2469,,,MIC,> 256 µg/mL
CC1(C)S[C@@H]2[C@H](NC(=O)[C@H](N)c3ccccc3)C(=O)N2[C@H]1C(=O)O,Mycolicibacterium smegmatis,,mc2155,,,MIC,18.7 µg/mL
Nc1cc(C(F)(F)F)c(-c2nc(N3CCOCC3)nc(N3CCOCC3)n2)cn1,"BRSK1 (Homo sapiens, UniProt Q8TDC3)",enzyme activity,,10 µM,reference: untreated,remaining activity,98%
CO/N=C(\C(=O)N[C@@H]1C(=O)N2C(C(=O)O)=C(CSc3nc(=O)c(=O)[nH]n3C)CS[C@H]12)c1csc(N)n1,Escherichia coli,,ATCC BAA-2469,,,MIC,2050 µg/mL
CC[C@H]1OC(=O)[C@H](C)[C@@H](O[C@H]2C[C@@](C)(OC)[C@@H](O)[C@H](C)O2)[C@H](C)[C@@H](O[C@@H]2O[C@H](C)C[C@H](N(C)C)[C@H]2O)[C@](C)(OC)C[C@@H](C)C(=O)[C@H](C)[C@@H](O)[C@]1(C)O,Mycolicibacterium smegmatis,,mc2155,,,MIC,2 µg/mL
C[C@H]1COc2c(N3CCN(C)CC3)c(F)cc3c(=O)c(C(=O)O)cn1c23,Escherichia coli,,ATCC 25922,,,MIC,0.008 to 0.06 µg/mL
CCc1c(Cl)c(O)c(Cl)c(O)c1C(=O)O[C@H]1[C@H](O)[C@H](OC)[C@H](OC/C2=C\C=C\C[C@H](O)/C(C)=C/[C@H](CC)[C@@H](O[C@@H]3OC(C)(C)[C@@H](OC(=O)C(C)C)[C@H](O)[C@@H]3O)/C(C)=C/C(C)=C/C[C@@H]([C@@H](C)O)OC2=O)O[C@@H]1C,Corynebacterium,,HM-784,,,MIC,< 0.06 µg/mL

# Repeated from above:
SMILES,target or system,assay,test system,setting,scale,measurement,result
Nc1cc(C(F)(F)F)c(-c2nc(N3CCOCC3)nc(N3CCOCC3)n2)cn1,"BRSK1 (Homo sapiens, UniProt Q8TDC3)",enzyme activity,,10 µM,reference: untreated,remaining activity,98%
CO/N=C(\C(=O)N[C@@H]1C(=O)N2C(C(=O)O)=C(CSc3nc(=O)c(=O)[nH]n3C)CS[C@H]12)c1csc(N)n1,Escherichia coli,,ATCC BAA-2469,,,MIC,2050 µg/mL
